Assay results collected from several papers.
Protocols differ between the studies behind these lines. Numbers after ± are the reported error.

CC(C)C[C@H](NC(=O)[C@@H]1CCCN1C(=O)[C@H](CCCCN)NC(=O)[C@@H](N)CO)C(=O)N1CCC[C@H]1C(=O)N[C@@H](CCC(=O)O)C(=O)N[C@H](C(=O)N[C@H](C(=O)N[C@@H](CC(=O)O)C(=O)N[C@@H](CCC(=O)O)C(=O)N[C@@H](Cc1ccc(O)cc1)C(=O)N[C@@H](Cc1cn(CCOCCOCCOCCNC(=O)CCc2ccc(O)c(CN(CCN(CC(=O)O)Cc3cc(CCC(=O)NCCCC[C@H](NC(=O)N[C@@H](CCC(=O)O)C(=O)O)C(=O)O)ccc3O)CC(=O)O)c2)nn1)C(=O)O)[C@@H](C)O)C(C)C [gallium-68 labelled]
standardized uptake value (NMRI nu/nu mice, LNCaP tumour, testes; 135.34 nmol/kg, low molar activity): 0.05 g/g

CCCC[C@H](NC(=O)[C@H](Cc1cccs1)NC(=O)[C@H](Cc1c[nH]cn1)NC(=O)CCNC(=O)[C@@H](NC(=O)[C@H](C)NC(=O)[C@H](Cc1c[nH]c2ccccc12)NC(=O)[C@H](CCC(N)=O)NC(=O)[C@H](Cc1cccs1)NC(=O)CN1CCC(NC(=O)CN(CCN(CCN(CC(=O)O)CC(=O)O)CC(=O)O)CC(=O)O)CC1)C(C)C)C(N)=O [indium-111 labelled]
intact peptide (radio-HPLC; male Swiss nu/nu mice, blood; intravenous, 1 nmol, 15 min): 2.8 ± 0.4%

CCCCCCCCCCCCCCCCCC(=O)OC[C@H](NC(=O)[C@H](Cc1c[nH]c2ccccc12)NC(=O)[C@H](Cc1c[nH]cn1)NC(=O)[C@@H]1CCC(=O)N1)C(=O)N[C@@H](Cc1ccc(O)cc1)C(=O)N[C@H](CC(C)C)C(=O)N[C@@H](CC(C)C)C(=O)N[C@@H](CCCNC(=N)N)C(=O)N1CCC[C@H]1C(=O)NCC
conversion to leucine (HPLC; human plasma; 1 mg/mL, 5 weeks, 37 °C): 80.3%

C[C@H](NC(=O)CNC(=O)[C@H](CCC(=O)O)NC(=O)[C@H](CCC(=O)O)NC(=O)[C@H](CC(=O)O)NC(=O)[C@@H]1CCCN1C(=O)[C@H](Cc1ccccc1)NC(=O)[C@H](CS)NC(=O)[C@H](Cc1ccc(O)cc1)NC(=O)CCCNC(=O)CNC(=O)CNC(=O)[C@@H](C)NC(=O)CN)C(=O)N[C@@H](CS)C(=O)N[C@@H](Cc1ccc(O)cc1)C(N)=O [technetium-99m labelled]
decrease of kidney radioactivity (KM mice, kidney; intravenous, dose not given, 120 min; baseline: 10 min value): 77%

N=C(N)NCCC[C@@H]1NC(=O)[C@H](CCCCNC(=O)CC[C@H](NC(=O)CCOCCOCCOCCOCCNC(=O)CN2CCN(CC(=O)O)CCN(CC(=O)O)CCN(CC(=O)O)CC2)C(=O)NCCCC[C@@H]2NC(=O)[C@@H](Cc3ccccc3)NC(=O)[C@H](CC(=O)O)NC(=O)CNC(=O)[C@H](CCCNC(=N)N)NC2=O)NC(=O)[C@@H](Cc2ccccc2)NC(=O)[C@H](CC(=O)O)NC(=O)CNC1=O [indium-111 labelled]
tissue uptake (athymic nude mice, female, U-87 MG glioma xenograft, bone; intravenous, 3 µCi, 24 h): 0.79 ± 0.11 %ID/g

N=C(N)NCCC[C@@H]1NC(=O)[C@H](CCCCNC(=O)CCOCCOCCOCCOCCNC(=O)CC[C@H](NC(=O)CCOCCOCCOCCOCCNC(=O)c2ccc(NN)nc2)C(=O)NCCOCCOCCOCCOCCC(=O)NCCCC[C@@H]2NC(=O)[C@@H](Cc3ccccc3)NC(=O)[C@H](CC(=O)O)NC(=O)CNC(=O)[C@H](CCCNC(=N)N)NC2=O)NC(=O)[C@@H](Cc2ccccc2)NC(=O)[C@H](CC(=O)O)NC(=O)CNC1=O [technetium-99m labelled]
tissue-to-tissue ratio (female athymic nude mice, U-87 MG glioma xenograft, tumour and liver; intravenous, 2.5 µCi, 60 min; baseline: tumour over liver): 5.14 ± 1.46

CSCC[C@H](NC(=O)[C@H](CC(C)C)NC(=O)[C@H](Cc1c[nH]cn1)NC(=O)CNC(=O)[C@@H](NC(=O)[C@H](C)NC(=O)[C@H](Cc1c[nH]c2ccccc12)NC(=O)[C@H](CCC(N)=O)NC(=O)CCCCCNC(=O)CNC(=O)CNC(=O)CNC(=O)CSC(C)=O)C(C)C)C(N)=O [technetium-99m labelled]
tissue uptake (nude mouse, PC-3 xenograft, muscle; 90 min): 0.25 ± 0.04 %ID/g

N=C(N)NCCC[C@@H]1NC(=O)[C@H](CCCCNC(=O)CCOCCOCCOCCOCCNC(=O)CC[C@H](NC(=O)CCOCCOCCOCCOCCNC(=O)CC[C@H](NC(=O)CN2CCN(CC(=O)O)CCN(CC(=O)O)CCN(CC(=O)O)CC2)C(=O)NCCOCCOCCOCCOCCC(=O)N[C@@H](CCC(=O)NCCOCCOCCOCCOCCC(=O)NCCCC[C@@H]2NC(=O)[C@@H](Cc3ccccc3)NC(=O)[C@H](CC(=O)O)NC(=O)CNC(=O)[C@H](CCCNC(=N)N)NC2=O)C(=O)NCCOCCOCCOCCOCCC(=O)NCCCC[C@@H]2NC(=O)[C@@H](Cc3ccccc3)NC(=O)[C@H](CC(=O)O)NC(=O)CNC(=O)[C@H](CCCNC(=N)N)NC2=O)C(=O)NCCOCCOCCOCCOCCC(=O)NCCCC[C@@H]2NC(=O)[C@@H](Cc3ccccc3)NC(=O)[C@H](CC(=O)O)NC(=O)CNC(=O)[C@H](CCCNC(=N)N)NC2=O)NC(=O)[C@@H](Cc2ccccc2)NC(=O)[C@H](CC(=O)O)NC(=O)CNC1=O [indium-111 labelled]
tissue uptake (female athymic nude mice, blood; intravenous, 3 µCi, 4 h, U-87 MG glioma xenograft): 0.2 ± 0.02 %ID/g

C=Cc1c(C)c2cc3nc(c4c5[nH]c(cc6nc(cc1[nH]2)C(C)=C6CC)c(C)c5C(=O)C4)[C@@H](CCC(=O)NCC(=O)N1CCC[C@H]1C(=O)N[C@@H](CC(C)C)C(=O)NCC(=O)N[C@@H](Cc1ccccc1)C(=O)N[C@@H](CCCNC(=N)N)C(=O)N[C@H](C(=O)NCC(=O)N[C@@H](CCCCNC(=O)CCCN(C)c1ccc(/N=N/c2ccc4nc5ccc(N(CC)CC)cc5[n+](-c5ccccc5)c4c2)cc1)C(N)=O)C(C)C)[C@@H]3C
penetration depth (C57BL/6J mouse, DMM osteoarthritis model, knee articular cartilage; intra-articular, 6 h; baseline: cartilage thickness): ~50%

N=C(N)NCCC[C@@H]1NC(=O)[C@H](CCCCNC(=O)CC[C@H](NC(=O)CCOCCOCCOCCOCCNC(=O)CC[C@H](NC(=O)CN2CCN(CC(=O)O)CCN(CC(=O)O)CCN(CC(=O)O)CC2)C(=O)NCCOCCOCCOCCOCCC(=O)N[C@@H](CCC(=O)NCCCC[C@@H]2NC(=O)[C@@H](Cc3ccccc3)NC(=O)[C@H](CC(=O)O)NC(=O)CNC(=O)[C@H](CCCNC(=N)N)NC2=O)C(=O)NCCCC[C@@H]2NC(=O)[C@@H](Cc3ccccc3)NC(=O)[C@H](CC(=O)O)NC(=O)CNC(=O)[C@H](CCCNC(=N)N)NC2=O)C(=O)NCCCC[C@@H]2NC(=O)[C@@H](Cc3ccccc3)NC(=O)[C@H](CC(=O)O)NC(=O)CNC(=O)[C@H](CCCNC(=N)N)NC2=O)NC(=O)[C@@H](Cc2ccccc2)NC(=O)[C@H](CC(=O)O)NC(=O)CNC1=O [indium-111 labelled]
tissue uptake (athymic nude mice, female, U-87 MG glioma xenograft, U-87 MG tumour; intravenous, 3 µCi, 24 h): 6.52 ± 3.85 %ID/g

CCCC[C@H](NC(=O)CNC(=O)CNC(=O)c1ccc(NN)nc1)C(=O)N[C@H]1CC(=O)NCCCC[C@@H](C(N)=O)NC(=O)[C@H](Cc2c[nH]c3ccccc23)NC(=O)[C@H](CCCNC(=N)N)NC(=O)[C@@H](Cc2ccccc2)NC(=O)[C@H](Cc2c[nH]cn2)NC1=O [technetium-99m labelled]
tissue uptake ratio (C57 mouse, B16/F1 melanoma-bearing; intravenous, 2 h; baseline: tumour over skin): 42.9

CCCC[C@H](NC(=O)CNC(=O)CNC(=O)CNC(=O)c1ccc(NN)nc1)C(=O)N[C@H]1CC(=O)NCCCC[C@@H](C(N)=O)NC(=O)[C@H](Cc2c[nH]c3ccccc23)NC(=O)[C@H](CCCNC(=N)N)NC(=O)[C@@H](Cc2ccccc2)NC(=O)[C@H](Cc2c[nH]cn2)NC1=O [technetium-99m labelled]
uptake ratio (C57 mouse, B16/F1 melanoma; 2 h; baseline: tumour over liver): 37.3

N=C(N)NCCC[C@@H]1NC(=O)[C@H](CCCCNC(=O)CNC(=O)CNC(=O)CNC(=O)CC[C@H](NC(=O)CCOCCOCCOCCOCCNC(=O)CC[C@H](NC(=O)CN2CCN(CC(=O)O)CCN(CC(=O)O)CCN(CC(=O)O)CC2)C(=O)NCCOCCOCCOCCOCCC(=O)N[C@@H](CCC(=O)NCC(=O)NCC(=O)NCC(=O)NCCCC[C@@H]2NC(=O)[C@@H](Cc3ccccc3)NC(=O)[C@H](CC(=O)O)NC(=O)CNC(=O)[C@H](CCCNC(=N)N)NC2=O)C(=O)NCC(=O)NCC(=O)NCC(=O)NCCCC[C@@H]2NC(=O)[C@@H](Cc3ccccc3)NC(=O)[C@H](CC(=O)O)NC(=O)CNC(=O)[C@H](CCCNC(=N)N)NC2=O)C(=O)NCC(=O)NCC(=O)NCC(=O)NCCCC[C@@H]2NC(=O)[C@@H](Cc3ccccc3)NC(=O)[C@H](CC(=O)O)NC(=O)CNC(=O)[C@H](CCCNC(=N)N)NC2=O)NC(=O)[C@@H](Cc2ccccc2)NC(=O)[C@H](CC(=O)O)NC(=O)CNC1=O [indium-111 labelled]
tissue uptake (female athymic nude mice, heart; intravenous, 3 µCi, 4 h, U-87 MG glioma xenograft): 0.57 ± 0.06 %ID/g

CC(C)C[C@@H]1NC(=O)[C@H](C(C)C)NC(=O)[C@H](CO)NC(=O)CNC(=O)CNC(=O)[C@H](CCCNC(=N)N)NC(=O)[C@@H]2CCCN2C(=O)[C@@H](NC(=O)CC[C@H](NC(=O)c2ccc(N(C)Cc3cnc4nc(N)nc(N)c4n3)cc2)C(=O)O)C(C)(C)SSC[C@@H](C(=O)O)NC(=O)CNC(=O)[C@H]([C@@H](C)O)NC(=O)[C@H](C(C)C)NC1=O
degradation rate constant (HPLC; Acetate buffer; pH 5.0, 70 °C): 0.0013 h⁻¹

CCCC[C@H](NC(=O)CCCCCCCNC(=O)c1ccc(NN)nc1)C(=O)N[C@H]1CC(=O)NCCCC[C@@H](C(N)=O)NC(=O)[C@H](Cc2c[nH]c3ccccc23)NC(=O)[C@H](CCCNC(=N)N)NC(=O)[C@@H](Cc2ccccc2)NC(=O)[C@H](Cc2c[nH]cn2)NC1=O [technetium-99m labelled]
uptake (C57 mouse, B16/F1 melanoma, muscle; intravenous, 4 h): 0.04 ± 0.03 %ID/g

N=C(N)NCCC[C@@H]1NC(=O)[C@H](CCCCNC(=O)CCOCCOCCOCCOCCNC(=O)CN2CCN(CC(=O)O)CCN(CC(=O)O)CCN(CC(=O)O)CC2)NC(=O)[C@@H](Cc2ccccc2)NC(=O)[C@H](CC(=O)O)NC(=O)CNC1=O [indium-111 labelled]
tissue uptake (female athymic nude mice, liver; intravenous, 3 µCi, 1 h, U-87 MG glioma xenograft): 1 ± 0.08 %ID/g

Repeated from above:
N=C(N)NCCC[C@@H]1NC(=O)[C@H](CCCCNC(=O)CCOCCOCCOCCOCCNC(=O)CC[C@H](NC(=O)CCOCCOCCOCCOCCNC(=O)CC[C@H](NC(=O)CN2CCN(CC(=O)O)CCN(CC(=O)O)CCN(CC(=O)O)CC2)C(=O)NCCOCCOCCOCCOCCC(=O)N[C@@H](CCC(=O)NCCOCCOCCOCCOCCC(=O)NCCCC[C@@H]2NC(=O)[C@@H](Cc3ccccc3)NC(=O)[C@H](CC(=O)O)NC(=O)CNC(=O)[C@H](CCCNC(=N)N)NC2=O)C(=O)NCCOCCOCCOCCOCCC(=O)NCCCC[C@@H]2NC(=O)[C@@H](Cc3ccccc3)NC(=O)[C@H](CC(=O)O)NC(=O)CNC(=O)[C@H](CCCNC(=N)N)NC2=O)C(=O)NCCOCCOCCOCCOCCC(=O)NCCCC[C@@H]2NC(=O)[C@@H](Cc3ccccc3)NC(=O)[C@H](CC(=O)O)NC(=O)CNC(=O)[C@H](CCCNC(=N)N)NC2=O)NC(=O)[C@@H](Cc2ccccc2)NC(=O)[C@H](CC(=O)O)NC(=O)CNC1=O [indium-111 labelled]
tissue uptake (female athymic nude mice, blood; intravenous, 3 µCi, 4 h, U-87 MG glioma xenograft): 0.2 ± 0.02 %ID/g

C=Cc1c(C)c2cc3nc(c4c5[nH]c(cc6nc(cc1[nH]2)C(C)=C6CC)c(C)c5C(=O)C4)[C@@H](CCC(=O)NCC(=O)N1CCC[C@H]1C(=O)N[C@@H](CC(C)C)C(=O)NCC(=O)N[C@@H](Cc1ccccc1)C(=O)N[C@@H](CCCNC(=N)N)C(=O)N[C@H](C(=O)NCC(=O)N[C@@H](CCCCNC(=O)CCCN(C)c1ccc(/N=N/c2ccc4nc5ccc(N(CC)CC)cc5[n+](-c5ccccc5)c4c2)cc1)C(N)=O)C(C)C)[C@@H]3C
penetration depth (C57BL/6J mouse, DMM osteoarthritis model, knee articular cartilage; intra-articular, 6 h; baseline: cartilage thickness): ~50%
